Results gathered from unrelated publications.
Numbered parts are unrelated; each lists some results of a single study.

Sample 1 — technique: RNA Bind-n-Seq; molecule type: RNA; sample: in vitro; tested at: 365 nM; baseline: no-protein control; reading: higher = stronger binding
Target: RNA binding protein fox-1 homolog 2, RRM domain, GST-SBP tag (RBFOX2, Homo sapiens, UniProt O43251-10, residues 100-194)
Setting: natural RNA segment, single round, ends assumed
Construct (chain): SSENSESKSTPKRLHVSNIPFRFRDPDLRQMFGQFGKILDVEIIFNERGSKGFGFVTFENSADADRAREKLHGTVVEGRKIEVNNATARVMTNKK
Sequence | RBNS enrichment (R)
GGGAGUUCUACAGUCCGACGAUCUGAUUCAGCAGGCCCUUCCCAUUCUGCCCCAGAGUGGGUCUUGGACCAGGGCAAGUGCAUCUUUGCCUCAACUCCAGGAUUUAGGCCUUAACACACUGGCCAUUCUUAUGUGGAAUUCUCGGGUGCCAA | 0.653
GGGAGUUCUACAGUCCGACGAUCUAGCCAAACACUCUACAACUGAGCUACAUCCUCCAGCCUAGGCUGUAAAUGUUUUUUGGAGCUAGAUUAGCUGCCUGCCAACCUUAGAACUGCAAAGCCAUUCCUGACCUUGGAAUUCUCGGGUGCCAA | 0.352
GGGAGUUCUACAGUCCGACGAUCCUUGCAGCUGUGUCCCAUGUGGCAUCCCAGAGCUGCGCCCUGCUGGUCUCUGUGAGCGCCACGCUGCUGUGCUGGAAAUGCCGCUUUAAAAAGGGAUACCGUGGGACUCUUGGAAUUCUCGGGUGCCAA | 0.351
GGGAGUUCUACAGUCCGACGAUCAAGAUAAGAAAAAGAAAAAUAUAUUGUUCAUAAUGUAAAUAAGUGUAUGCUUAUUUAUUUGGGGGGAAAACUAUACAUUAAAGGACCUUUGUCCUAAGCUCUCUCCCAGGUGGAAUUCUCGGGUGCCAA | 0.659
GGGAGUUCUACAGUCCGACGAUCGGCCCAGACAGAAGAGGACGACCUACAGGAGCCAAAGGGAGACCUGACAGAAUCCUAAGACGUGAGUUGCUCAUUGUAAAACUAGAAUGUGAAGUGAAGUCACGGAACAAUGGAAUUCUCGGGUGCCAA | 0.7
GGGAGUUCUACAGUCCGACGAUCGGCAACCCAGAAAAAGUGCUCCCCACAUCCUUCUGAGACUUGGCCUGUGUGUGUGGACGAGAAGCCAUUCACCGUAAGGGUGCAGAAAGCUCGACCAAGCCGAAUUGCAAUGGAAUUCUCGGGUGCCAA | 0.639
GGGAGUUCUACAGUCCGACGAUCAACGAGUACUGAGAGGAGAGAAUGUACGUUUGCUUUACCCACCGCCACCAAGAAAGCAGUCCGAUGAGAUUUUUUUUUGGAGGGGGGAGGGUCUACACAGCAAGAGAACAUGGAAUUCUCGGGUGCCAA | 0.317
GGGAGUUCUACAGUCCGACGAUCGGCCAUGGCUGCAGAUGGAAUUGGAAAGUAAAAUAUUUGUGGCUGAGCCUCUUUAGUCUUCCCUGAAGCUGGCUUUCUAUGGUCAAGCUAUAAUUCUUUGGUGAAUAGGUUGGAAUUCUCGGGUGCCAA | 0.771
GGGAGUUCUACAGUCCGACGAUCUCAGCUGGUCAUUUACCAGGUGUGGACUUAAGUUGCUAGGCUUGCAGUAAGAAUUGCCAGCCACUCAUUGUGCGGGUCUGCGUGGAGCUUUAAUCAGAAAAAGCCUCCACUGGAAUUCUCGGGUGCCAA | 0.288
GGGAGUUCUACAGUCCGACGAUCCGCCGGAGAAUUACCAUCCCCCCGCACCUCGCCUAUGGGGAGAAUGGAACUGGUAGGGGCGUUCCCCAGCCACCACCUCAGCUCCUCCUCCGAACUGCCCAUUGUGUCUAUGGAAUUCUCGGGUGCCAA | 0.376
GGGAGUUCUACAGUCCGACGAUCGAAAGCUACUCAAAGCCAGCCGUAAGUCUAUGGUAGAAUGUGAUGGAACAUGUUGGUGGAAGCUUGUACAAUAGAACACAUUGGUGGGAGCUUGUACAUACUUUUUUAUGUGGAAUUCUCGGGUGCCAA | 2.22
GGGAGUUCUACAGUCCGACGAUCUUUAAAAAAAAAAAGAAAAAAAGCUGUAACCUUAUCAUUUCUGAGUAGACCAUUGAGCGAUGAAUGCACACCUGUAGUAGCCCAGGACCAGCUGUGGUGGCUAAAGGGAAUGGAAUUCUCGGGUGCCAA | 0.776

Sample 2 — technique: RNA Bind-n-Seq; molecule type: RNA; sample: in vitro; tested at: 20 nM; setting: 6-mer, flanks averaged, single round; with: 150 mM KCl; baseline: input library; reading: higher = stronger binding
Target: TAR DNA-binding protein 43, full length, His tag (TARDBP, Homo sapiens, UniProt Q13148, residues 1-414)
Sequence | 6-mer enrichment (R)
CGCGUC | 0.783
AGCCCG | 0.764
UUCACG | 0.621
UUGGCG | 1.29
ACAUUU | 0.623
AGUUAC | 0.613
CGAAUG | 0.992
GGUGUU | 1.31
GAAAAA | 0.891
AGGCAC | 0.899
GAUCAC | 0.659
AAAAGG | 0.985
AUUCAU | 0.553
AUUAAC | 0.582
AGCUGU | 0.768
UUGAAC | 0.637
GGGGCC | 3.88
GUUCUU | 0.599
GUUAUA | 0.651
GGUCAC | 0.956
UGGUGA | 1.37
CGAAAU | 0.595
GCUAAU | 0.669
CGUCGG | 1.33
AAGUAC | 0.618

Sample 3 — technique: protein-binding microarray; molecule type: double-stranded DNA, one strand shown; sample: in vitro; tested at: 2200 nM top; setting: 60-bp whole probe; with: salmon DNA 0.4 mg/ml; baseline: random background probes; reading: higher = stronger binding; all sequences stand within: GCCTAGCAC … GTCTTGATTCGCTTGACGCTGCTG
Target: Interferon regulatory factor 7, full length, phosphomimetic (IRF7, Homo sapiens, UniProt Q92985, residues 1-503, S471D/S472D/S475D/S476D/S477D/S483D/S484D/S487D)
Construct (chain): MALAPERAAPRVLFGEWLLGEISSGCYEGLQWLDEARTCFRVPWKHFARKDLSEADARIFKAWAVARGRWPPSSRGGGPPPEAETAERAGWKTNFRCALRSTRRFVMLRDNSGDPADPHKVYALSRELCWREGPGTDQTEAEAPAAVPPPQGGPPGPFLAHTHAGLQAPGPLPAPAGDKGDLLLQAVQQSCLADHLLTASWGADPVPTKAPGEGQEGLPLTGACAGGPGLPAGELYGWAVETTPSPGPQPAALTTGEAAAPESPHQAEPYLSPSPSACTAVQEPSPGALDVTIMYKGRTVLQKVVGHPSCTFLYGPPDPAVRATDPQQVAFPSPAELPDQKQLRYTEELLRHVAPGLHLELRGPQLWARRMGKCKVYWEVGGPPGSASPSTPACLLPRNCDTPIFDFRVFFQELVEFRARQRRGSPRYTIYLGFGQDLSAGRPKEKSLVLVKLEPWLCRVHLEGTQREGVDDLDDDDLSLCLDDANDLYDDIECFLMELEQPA
Sequence | fitted relative affinity
GGCAGGAATAAAGGAGCAGCGTGCTAG | -1.59 z-score
TCACATTTGGAAAATGAAACTGTGCTA | 1.19 z-score
GACGATTTCGGGTATCGCGACGTGCTA | 2.8 z-score
CACGATTTCAGTATCGAGACGTGCTAG | 1.31 z-score
GACGATCTCCGTATCGAGACGTGCTAG | 0.479 z-score
TCATGCTTGTATCTGGGACTGTGCTAG | 0.763 z-score
TTAGGTTCTCTTTTCCTTTAGTGCTAG | 2.43 z-score
TTAGGTTTCCTACTTCTTTAGTGCTAG | 1.33 z-score
GACGGACTGGGTCTCGGGACGTGCTAG | -0.972 z-score
TTAGGTTCCGGTTTCGGGTAGTGCTAG | 6.84 z-score
TTAGGTATCGGTCTCGGTTTGTGCTAG | 2.05 z-score
GGAAGTCCCATGTTGCAGACTGTGCTA | 0.449 z-score
TCAAAAATGATTGGTTGACTGTGCTAG | -0.33 z-score
GACAATTTCAGTTTCGAGACGTGCTAG | 5.55 z-score
GCCGATCTCAGTATCGAGACGTGCTAG | 0.339 z-score
TTAGTTTTCGACTTTCGGTTAGTGCTA | 11.4 z-score
ATATCTTATCCTATCAGTTTGTGCTAG | 1.59 z-score
CTCTGCTTGTATCTGGGTTCGTGCTAG | 1.18 z-score
TTTTTTCTACTTCTGTTTTTGTGCTAG | 4.8 z-score
GACCGTATCGACTATCGGGACGTGCTA | 0.294 z-score

Sample 4 — technique: universal PBM; molecule type: double-stranded DNA, one strand shown; sample: in vitro; tested at: 600 nM; reading: higher = stronger binding
Target: Sal-like protein 4, full length isoform A (SALL4, Homo sapiens, UniProt Q9UJQ4, residues 1-1053)
Chain of UniProt Q9UJQ4 (whole entry, looked up): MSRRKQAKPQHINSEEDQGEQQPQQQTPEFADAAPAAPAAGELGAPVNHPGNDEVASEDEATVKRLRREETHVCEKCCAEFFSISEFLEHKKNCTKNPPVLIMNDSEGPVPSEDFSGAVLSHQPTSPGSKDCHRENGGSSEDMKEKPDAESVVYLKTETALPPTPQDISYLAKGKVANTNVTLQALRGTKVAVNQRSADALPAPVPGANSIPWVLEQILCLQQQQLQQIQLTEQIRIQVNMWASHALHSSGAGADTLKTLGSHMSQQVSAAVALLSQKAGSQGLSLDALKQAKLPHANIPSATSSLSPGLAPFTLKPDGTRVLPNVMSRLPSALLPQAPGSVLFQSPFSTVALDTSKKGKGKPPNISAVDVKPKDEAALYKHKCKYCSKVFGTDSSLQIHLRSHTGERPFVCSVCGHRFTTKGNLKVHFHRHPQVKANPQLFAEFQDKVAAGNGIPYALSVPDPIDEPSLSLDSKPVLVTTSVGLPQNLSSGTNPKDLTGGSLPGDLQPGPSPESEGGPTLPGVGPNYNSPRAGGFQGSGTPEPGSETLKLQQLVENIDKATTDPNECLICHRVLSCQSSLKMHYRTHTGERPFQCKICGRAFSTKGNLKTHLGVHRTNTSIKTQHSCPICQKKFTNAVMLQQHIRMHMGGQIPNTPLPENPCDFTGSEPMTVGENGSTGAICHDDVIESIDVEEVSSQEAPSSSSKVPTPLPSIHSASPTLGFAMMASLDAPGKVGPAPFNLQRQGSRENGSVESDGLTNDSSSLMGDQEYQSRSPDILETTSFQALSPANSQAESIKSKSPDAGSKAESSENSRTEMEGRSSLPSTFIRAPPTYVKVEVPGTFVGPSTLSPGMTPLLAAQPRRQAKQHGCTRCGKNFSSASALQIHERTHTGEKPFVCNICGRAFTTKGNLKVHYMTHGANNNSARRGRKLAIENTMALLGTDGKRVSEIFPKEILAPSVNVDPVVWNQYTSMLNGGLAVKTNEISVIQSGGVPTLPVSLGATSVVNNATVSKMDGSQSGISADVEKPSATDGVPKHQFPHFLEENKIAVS
Setting: 8-mer, flanks averaged, mean of replicates
Sequence | E-score
GTGTGGAA | 0.0989
GCGAGCCC | -0.376
GAAGTATC | 0.189
AACGTTGT | 0.14
TCATTAGA | 0.177
ACGAGCCT | -0.168
ACTTTGCG | -0.147
CGCCGCTA | -0.283
ATACGCCC | -0.127
ACCCGCCG | -0.262
GCCTGACA | -0.274
CACTAGTA | 0.0478
CCAGTCAG | -0.143
CATCACCA | 0.0914
TCTAGAAA | 0.128
TACCTGGA | -0.136
TAACCACA | 0.144
GGCCTAAC | -0.192
AGGATGAG | -0.0354
GTCCGGGA | -0.199
GGACCGCC | -0.399
GTCGAACA | -0.0623
ATGGTACA | 0.161
GAGATTAC | -0.0488
CGGAGAGC | -0.171

Sample 5 — technique: protein binding microarray; molecule type: double-stranded DNA, one strand shown; sample: in vitro; tested at: not given; baseline: not given; reading: higher = stronger binding
Target: Histone acetyltransferase KAT6A, both winged helices, GST fusion (KAT6A, Homo sapiens, UniProt Q92794, residues 1-181)
Setting: 8-mer, flanks averaged, mean of 2 arrays, mostly near background
Residues (chain): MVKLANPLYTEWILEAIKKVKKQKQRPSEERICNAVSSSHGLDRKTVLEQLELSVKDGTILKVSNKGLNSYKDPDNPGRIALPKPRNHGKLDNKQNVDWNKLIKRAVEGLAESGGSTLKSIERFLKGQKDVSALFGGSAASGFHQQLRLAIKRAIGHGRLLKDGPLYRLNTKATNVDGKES
Sequence | E-score
TCTCTGCA | -0.145
ATGAGCCA | -0.227
CGGCTATA | 0.264
CAAAGGCG | 0.0631
CCCCGTGC | 0.231
CAACGGGA | 0.172
GCAGATCC | 0.00724
CTATTCGA | -0.128
CTTAAGCC | 0.111
AGTAGTCA | -0.0422
TCCCTCGA | -0.0749
CCATCACA | -0.196
GAAACGAC | -0.0362
AGTAGCTC | -0.102
CATATCAA | -0.0958
AACTATCT | -0.232
GACACTCA | 0.103
GTAGAAAA | -0.0669

A few entries again (sample 5):
Sequence | E-score
GTAGAAAA | -0.0669
CATATCAA | -0.0958
CAAAGGCG | 0.0631
GACACTCA | 0.103
TCTCTGCA | -0.145
GCAGATCC | 0.00724
CCATCACA | -0.196
GAAACGAC | -0.0362
AACTATCT | -0.232
AGTAGCTC | -0.102
CAACGGGA | 0.172
CTTAAGCC | 0.111
CTATTCGA | -0.128
AGTAGTCA | -0.0422
CGGCTATA | 0.264
